Assay results of several laboratories.
Parts stem from different laboratories: compare values within a part only. Changes are numbered by the printed parent chain.

Block 1 — technique: RNA Bind-n-Seq; molecule type: RNA; sample: in vitro; tested at: 365 nM; baseline: no-protein control; reading: higher = stronger binding
Target: RNA binding protein fox-1 homolog 2, RRM domain, GST-SBP tag (RBFOX2, Homo sapiens, UniProt O43251-10, residues 100-194)
Setting: natural RNA segment, single round, ends assumed
Constant ends, left off below: GGGAGUUCUACAGUCCGACGAUC … UGGAAUUCUCGGGUGCCAA
Residues (chain): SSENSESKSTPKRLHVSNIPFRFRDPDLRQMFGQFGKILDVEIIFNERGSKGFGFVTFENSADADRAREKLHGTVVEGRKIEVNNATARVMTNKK
Oligonucleotide | RBNS enrichment (R)
ACCGGAAAGGUGGCCCCAGCUGUUGACUUCCAGUCACUGUCCCAGACGGCACAAGGUUUUCUGUAGGAAAGCUGCCAUUGCCCCGGCCCCUUUUCUUCCUUUGUCCCGUU | 0.305
AGGCUCAAGAUGCAUUCCUUGUGUAGGUCGGAGAGAGCACUUCUAAUGUUAAGUGGGGUACAGAUCAGCUGCCCCCCCACGUAGCCUGGACAUCGUCUUAUCCCCAUAAU | 2.33
GACCUGAUCUGAAGUGCACCAAGGAAGUAUCUGGUGGUUCUCCUGAGAUGGGGGCCUUGCAGCCCAGCACCCCCUCACUGCCAGCAGGGCACCAGGAGACAGGGUCCAGG | 0.427
AGCUGCCUCAUUAGCCUGGCUUCAUUUGGGGAGCUCCUGACAGUGUCCCGAGUAGGUGCCCAGCCCCUCUUGGGUACCAGAGUGGUUAUAGCGACACACUCCUCAUCCAG | 0.304
UUAUAUUUAUGCUUCUGUGUCAUGAUUUUUUCAAGCUGUUAUAUUAGUUGUAACCAGUAGUAUUCACAUUAAAUCUUGCUUUUUUUCCCCUUAAAAAAAGAAAAAAAUUA | 1.25
GCUGGGCUCAUUUCGGUCCCUUUCUCCUUGGUCCCAGACCUUGGGGGAAAGGAAGGAAGUGCAUGUUUGGGAACUGGCAUUACUGGAACUAAUGGUUUUAACCUCCUUAA | 4.15
UCCCUGGGGCCAACGGCAACAGCAUGGGCCUCACCUCCUCUGUGAUUUCUUUCUUUGCACCAAAGACAUCAGUCUCCAACAUGUUUCUGUUUUGUUGUUUGAUUCAGCAA | 5.42
CUACCCAGCACAGCAAAUGGUUGUAGUAAUUGCCAAAGCCCUCAUAAACCCCUCCGGCUUGAGGAGAGUGCAAUCAUGGCUCUGCUGCCUGCACUUGCUGGGUUCCUCCC | 0.319
GGACGUGGAGGUAGGUGGAUCACUGCAAGUUUGAGGCUAGCAUGGUCAAUAAAGAUAGUUCAAGGCCAGCUUGGACUAUAUGAUAUGACUGCCCAAUUUUAAAGUUAUUC | 1.87
UGCUUUGCUUAGCCACUACUGGAUUUGUUUGGCUGGCCACUGGGUGGCAGCAUAGGUUCUAAUUUUCUUUUGAAGAGAAAUUGUGGGAAGGGUAAACUUUUGAGAUUUUU | 1.61
UAUUGCUCUUCUGAAGUAAGAUUUUUCUACACCGGUAGCCUUCGCUGUCUGUCAGUCAGGACCUUCUGGUAUAGGUGAUGUAAAAUAACCGUACAAUAUUAAUGCAUGCG | 10.1
UUUAGUUUAGAAGUGCUAUAUUCCACAAGGGUUAAGUCAAUGAGGUUGGAAGACACCUAUCUUUUUUUUUAAUUCAAAAAGCACAAUCAGUCUUUCCUUUGAAAAUCCAU | 0.51

Block 2 — target: CCND2, cyclin fold, Cln2 fusion (human); technique: yeast growth competition, sequencing; sample: yeast; setting: weak parent motif; baseline: not given; reading: higher = stronger binding
Starting sequence: SLBP docking peptide (human); ARYKRKLLINDFG
Substitution | normalised enrichment score
K6C | 0.904
L7R | 0.527
D11E | 0.463
R5K | 0.288
R2Q | 0.65
Y3N | 0.228
R2G | 0.644
N10M | 0.0883
L7G | 0.127
K4P | -0.543
R5V | 0.476
R2L | 0.106
G13V | 0.474

Block 3 — technique: universal PBM; molecule type: double-stranded DNA, one strand shown; sample: in vitro; tested at: 600 nM; reading: higher = stronger binding
Target: Sal-like protein 4, full length isoform A (SALL4, Homo sapiens, UniProt Q9UJQ4, residues 1-1053)
UniProt Q9UJQ4, sequence (whole entry, looked up): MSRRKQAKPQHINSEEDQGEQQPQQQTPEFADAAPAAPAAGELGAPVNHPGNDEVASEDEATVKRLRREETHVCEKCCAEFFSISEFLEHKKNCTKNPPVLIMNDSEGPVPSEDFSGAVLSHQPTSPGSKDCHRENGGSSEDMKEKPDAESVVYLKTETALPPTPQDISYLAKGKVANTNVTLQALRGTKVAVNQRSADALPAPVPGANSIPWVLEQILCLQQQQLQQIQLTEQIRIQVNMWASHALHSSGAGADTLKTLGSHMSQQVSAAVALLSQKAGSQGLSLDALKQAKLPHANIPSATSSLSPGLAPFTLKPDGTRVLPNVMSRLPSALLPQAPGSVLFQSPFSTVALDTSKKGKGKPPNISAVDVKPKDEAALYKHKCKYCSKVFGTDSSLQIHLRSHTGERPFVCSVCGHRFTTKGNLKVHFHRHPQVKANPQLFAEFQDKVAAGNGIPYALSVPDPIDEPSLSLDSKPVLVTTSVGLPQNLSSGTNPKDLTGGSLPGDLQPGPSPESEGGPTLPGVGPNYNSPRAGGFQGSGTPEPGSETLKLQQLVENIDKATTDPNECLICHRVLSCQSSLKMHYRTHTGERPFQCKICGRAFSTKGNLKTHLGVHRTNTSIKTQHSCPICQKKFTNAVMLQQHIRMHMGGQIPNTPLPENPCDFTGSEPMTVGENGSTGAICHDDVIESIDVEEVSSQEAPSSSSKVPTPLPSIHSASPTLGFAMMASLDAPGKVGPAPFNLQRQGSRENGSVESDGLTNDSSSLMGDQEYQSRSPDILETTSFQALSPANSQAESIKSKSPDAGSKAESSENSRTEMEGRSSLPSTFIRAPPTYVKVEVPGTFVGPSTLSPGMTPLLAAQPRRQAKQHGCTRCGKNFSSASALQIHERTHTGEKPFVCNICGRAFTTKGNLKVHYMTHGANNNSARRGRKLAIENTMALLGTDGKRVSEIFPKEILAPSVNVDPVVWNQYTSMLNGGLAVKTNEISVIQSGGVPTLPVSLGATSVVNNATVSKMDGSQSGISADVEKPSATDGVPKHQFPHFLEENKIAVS
Setting: 8-mer, flanks averaged, mean of replicates
Oligonucleotide | E-score
GAACGCAC | -0.154
ACTCAAGG | 0.00183
CGTATTGA | 0.124
CCTCCGAA | -0.238
CTCAGATA | 0.14
GGTTGTAC | -0.115
TGAACGCA | 0.122
TCAAGAGA | 0.0946
CCCTATAG | 0.0517
ACCCGCGC | -0.306
AGACCGCA | -0.133
ATGGGGTC | -0.287
ACCTAACG | -0.035
GCCGCAGA | -0.234

Further values, each from its own experiment
Molecule | target | assay | test system | conditions | how to read | quantity | result
PhoQ, residues 284 288 289 292 302 303 SLSLLA | PhoP, residues 12 14 15 18 19 AQCLL (Escherichia coli, UniProt P23836) | Sort-seq, item: YFP reporter | E. coli | PhoQ-PhoP variant library, together with: 10 µM Mg2+ | baseline: high Mg2+ state, higher = stronger signaling | fold induction | 1.22

Repeated from above (block 3):
Oligonucleotide | E-score
ACTCAAGG | 0.00183
CGTATTGA | 0.124
CCTCCGAA | -0.238
CTCAGATA | 0.14
